Measured values pooled from the literature.
Numbered parts are unrelated; each lists some results of a single study.
UniProt P10721, sequence (whole entry, unmodified, looked up): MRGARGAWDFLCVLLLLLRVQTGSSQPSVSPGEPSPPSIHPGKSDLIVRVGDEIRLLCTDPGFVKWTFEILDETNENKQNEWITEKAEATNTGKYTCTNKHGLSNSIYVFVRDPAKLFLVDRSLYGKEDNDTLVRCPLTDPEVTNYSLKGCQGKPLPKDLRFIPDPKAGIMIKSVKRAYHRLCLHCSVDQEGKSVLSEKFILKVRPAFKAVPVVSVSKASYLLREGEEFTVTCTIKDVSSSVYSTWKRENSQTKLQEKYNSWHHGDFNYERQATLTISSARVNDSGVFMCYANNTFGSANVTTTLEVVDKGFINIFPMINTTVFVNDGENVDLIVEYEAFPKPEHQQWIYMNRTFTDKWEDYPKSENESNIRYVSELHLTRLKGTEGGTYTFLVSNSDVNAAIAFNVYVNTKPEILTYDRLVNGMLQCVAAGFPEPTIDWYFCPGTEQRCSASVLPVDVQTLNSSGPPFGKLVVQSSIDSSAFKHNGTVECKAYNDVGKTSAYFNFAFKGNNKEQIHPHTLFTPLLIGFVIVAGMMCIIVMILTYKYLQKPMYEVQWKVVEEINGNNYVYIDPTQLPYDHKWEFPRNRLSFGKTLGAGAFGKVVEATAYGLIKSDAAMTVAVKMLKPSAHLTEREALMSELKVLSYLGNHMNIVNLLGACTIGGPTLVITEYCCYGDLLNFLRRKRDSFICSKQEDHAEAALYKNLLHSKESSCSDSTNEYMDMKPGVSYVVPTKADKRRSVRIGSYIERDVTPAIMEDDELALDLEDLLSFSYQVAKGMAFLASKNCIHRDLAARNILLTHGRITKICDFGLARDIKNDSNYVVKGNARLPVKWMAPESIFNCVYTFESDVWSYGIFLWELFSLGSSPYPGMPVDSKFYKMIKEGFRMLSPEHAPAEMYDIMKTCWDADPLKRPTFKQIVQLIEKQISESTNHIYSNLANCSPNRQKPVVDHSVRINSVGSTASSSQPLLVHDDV
UniProt Q13976, sequence (whole entry, looked up): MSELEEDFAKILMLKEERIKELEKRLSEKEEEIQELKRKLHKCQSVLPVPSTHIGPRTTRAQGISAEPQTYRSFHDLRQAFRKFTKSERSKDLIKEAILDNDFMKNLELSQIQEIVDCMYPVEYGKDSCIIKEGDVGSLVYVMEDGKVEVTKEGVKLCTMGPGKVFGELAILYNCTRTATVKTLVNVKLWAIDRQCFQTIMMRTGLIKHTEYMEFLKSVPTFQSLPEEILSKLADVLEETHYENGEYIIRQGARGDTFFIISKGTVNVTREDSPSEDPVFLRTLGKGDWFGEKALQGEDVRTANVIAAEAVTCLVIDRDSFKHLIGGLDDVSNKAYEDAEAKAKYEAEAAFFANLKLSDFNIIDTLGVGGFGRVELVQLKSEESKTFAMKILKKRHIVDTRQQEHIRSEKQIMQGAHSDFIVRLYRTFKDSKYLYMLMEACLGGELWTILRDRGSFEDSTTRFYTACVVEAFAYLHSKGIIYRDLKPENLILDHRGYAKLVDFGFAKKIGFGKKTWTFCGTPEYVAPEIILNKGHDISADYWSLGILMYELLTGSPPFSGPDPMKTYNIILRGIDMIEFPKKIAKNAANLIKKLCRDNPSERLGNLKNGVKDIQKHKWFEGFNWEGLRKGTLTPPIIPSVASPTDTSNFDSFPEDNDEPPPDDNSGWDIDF
UniProt Q5S007, sequence (whole entry, unmodified, looked up): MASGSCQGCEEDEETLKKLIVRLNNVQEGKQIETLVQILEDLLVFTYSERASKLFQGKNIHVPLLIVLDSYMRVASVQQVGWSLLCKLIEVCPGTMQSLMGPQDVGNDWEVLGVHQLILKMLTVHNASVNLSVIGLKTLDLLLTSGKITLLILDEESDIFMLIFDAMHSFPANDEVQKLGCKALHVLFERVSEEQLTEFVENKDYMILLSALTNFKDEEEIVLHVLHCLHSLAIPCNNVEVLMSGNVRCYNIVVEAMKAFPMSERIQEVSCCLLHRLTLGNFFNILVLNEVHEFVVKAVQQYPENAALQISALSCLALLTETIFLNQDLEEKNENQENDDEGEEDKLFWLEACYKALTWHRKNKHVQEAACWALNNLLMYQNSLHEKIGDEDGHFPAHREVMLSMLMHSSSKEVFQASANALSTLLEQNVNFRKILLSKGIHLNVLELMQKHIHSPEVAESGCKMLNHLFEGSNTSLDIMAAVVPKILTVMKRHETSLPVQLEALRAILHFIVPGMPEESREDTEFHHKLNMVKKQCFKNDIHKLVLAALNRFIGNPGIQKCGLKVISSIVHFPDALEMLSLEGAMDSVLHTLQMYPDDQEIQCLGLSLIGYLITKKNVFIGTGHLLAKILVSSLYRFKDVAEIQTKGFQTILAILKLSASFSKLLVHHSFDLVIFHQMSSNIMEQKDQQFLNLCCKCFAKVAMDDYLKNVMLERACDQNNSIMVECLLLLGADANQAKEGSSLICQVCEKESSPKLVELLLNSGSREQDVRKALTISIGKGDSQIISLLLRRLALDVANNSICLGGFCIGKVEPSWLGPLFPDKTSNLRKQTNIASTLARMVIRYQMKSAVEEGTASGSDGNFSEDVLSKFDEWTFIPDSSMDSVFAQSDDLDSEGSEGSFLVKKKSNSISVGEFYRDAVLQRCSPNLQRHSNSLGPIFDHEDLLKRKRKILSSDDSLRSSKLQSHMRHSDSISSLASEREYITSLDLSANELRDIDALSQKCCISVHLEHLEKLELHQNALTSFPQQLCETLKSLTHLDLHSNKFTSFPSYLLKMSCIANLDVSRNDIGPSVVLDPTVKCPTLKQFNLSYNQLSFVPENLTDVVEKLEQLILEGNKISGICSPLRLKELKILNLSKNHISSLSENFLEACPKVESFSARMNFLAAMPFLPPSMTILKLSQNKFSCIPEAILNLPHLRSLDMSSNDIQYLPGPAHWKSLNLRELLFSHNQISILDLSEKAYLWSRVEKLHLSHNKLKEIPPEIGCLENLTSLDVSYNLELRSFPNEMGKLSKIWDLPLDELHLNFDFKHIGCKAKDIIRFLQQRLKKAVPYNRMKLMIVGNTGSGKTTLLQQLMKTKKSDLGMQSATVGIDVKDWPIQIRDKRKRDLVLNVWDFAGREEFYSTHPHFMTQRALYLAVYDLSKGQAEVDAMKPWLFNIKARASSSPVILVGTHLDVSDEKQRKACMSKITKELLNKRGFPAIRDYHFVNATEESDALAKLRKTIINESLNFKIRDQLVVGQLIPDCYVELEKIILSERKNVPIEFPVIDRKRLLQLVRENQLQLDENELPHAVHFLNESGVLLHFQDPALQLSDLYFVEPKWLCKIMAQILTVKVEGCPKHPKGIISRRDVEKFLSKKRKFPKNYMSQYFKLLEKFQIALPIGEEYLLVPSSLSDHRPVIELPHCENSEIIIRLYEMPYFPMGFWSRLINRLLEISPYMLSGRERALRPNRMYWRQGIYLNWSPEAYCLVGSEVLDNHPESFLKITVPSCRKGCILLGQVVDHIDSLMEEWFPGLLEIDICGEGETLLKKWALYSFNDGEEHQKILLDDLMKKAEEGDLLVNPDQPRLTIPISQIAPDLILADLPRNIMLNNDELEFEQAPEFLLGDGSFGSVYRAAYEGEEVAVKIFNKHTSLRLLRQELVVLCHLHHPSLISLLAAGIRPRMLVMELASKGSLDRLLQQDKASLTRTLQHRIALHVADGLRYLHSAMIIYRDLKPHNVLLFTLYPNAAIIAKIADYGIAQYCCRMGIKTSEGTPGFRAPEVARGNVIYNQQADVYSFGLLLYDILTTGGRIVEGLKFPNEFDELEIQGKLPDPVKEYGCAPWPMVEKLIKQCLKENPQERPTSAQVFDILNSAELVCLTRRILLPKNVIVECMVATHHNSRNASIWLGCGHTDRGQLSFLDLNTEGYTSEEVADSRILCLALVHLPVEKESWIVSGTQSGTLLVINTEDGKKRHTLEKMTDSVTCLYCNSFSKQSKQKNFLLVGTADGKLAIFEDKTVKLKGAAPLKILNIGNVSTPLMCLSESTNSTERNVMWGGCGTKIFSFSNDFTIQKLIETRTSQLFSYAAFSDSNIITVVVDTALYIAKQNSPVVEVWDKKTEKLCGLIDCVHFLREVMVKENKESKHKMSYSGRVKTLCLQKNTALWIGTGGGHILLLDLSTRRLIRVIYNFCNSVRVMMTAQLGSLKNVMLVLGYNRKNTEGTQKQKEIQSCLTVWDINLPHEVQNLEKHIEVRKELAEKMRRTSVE
UniProt P52564, sequence (whole entry, looked up): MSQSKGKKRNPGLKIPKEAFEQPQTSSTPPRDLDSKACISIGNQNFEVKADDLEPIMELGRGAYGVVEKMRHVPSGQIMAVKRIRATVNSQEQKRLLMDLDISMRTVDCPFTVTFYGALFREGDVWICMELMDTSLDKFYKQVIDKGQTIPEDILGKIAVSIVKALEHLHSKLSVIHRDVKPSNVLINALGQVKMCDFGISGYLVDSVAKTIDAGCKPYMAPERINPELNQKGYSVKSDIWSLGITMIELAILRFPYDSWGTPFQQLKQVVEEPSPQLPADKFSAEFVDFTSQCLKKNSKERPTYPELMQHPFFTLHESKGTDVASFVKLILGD

Block 1 — effect on: enzyme activity; mode: inhibitor; concentration: 0.5 µM; relative to: control
Structure (SMILES): CCCNC(=O)Nc1ccc(Oc2ncnc3cc(OC)c(OC)cc23)cc1Cl
IRAK4 (Homo sapiens, UniProt Q9NWZ3) — remaining activity: 92%.
The remaining activity was 83.1% (MAP4K2 (Homo sapiens, UniProt Q12851)).
The remaining activity was 77% (CHEK1 (Homo sapiens, UniProt O14757)).
For PRKCI (Homo sapiens, UniProt P41743): remaining activity read 93%.
It gave 75.5% for remaining activity (LYN (Homo sapiens, UniProt P07948)).
MAP2K6 (Homo sapiens, UniProt P52564) — remaining activity: 106%.
The remaining activity was 76.8% (PRKG1 (Homo sapiens, UniProt Q13976)).
It gave 100% for remaining activity (WNK2 (Homo sapiens, UniProt Q9Y3S1)).
CSNK2A1 (Homo sapiens, UniProt P68400) — remaining activity: 105%.
For MAPK13 (Homo sapiens, UniProt O15264): remaining activity read 100%.
It gave 94.1% for remaining activity (LRRK2 (Homo sapiens, UniProt Q5S007)).
The remaining activity was 87.9% (STK38 (Homo sapiens, UniProt Q15208)).
It gave 39.2% for remaining activity (KIT (Homo sapiens, UniProt P10721)).
EPHA5 (Homo sapiens, UniProt P54756) — remaining activity: 81.8%.
It gave 98.6% for remaining activity (BTK (Homo sapiens, UniProt Q06187)).
The remaining activity was 98% (Cyclin-dependent kinase 9, with cyclin T1 (CDK9, Homo sapiens, UniProt P50750)).
MKNK2 (Homo sapiens, UniProt Q9HBH9) — remaining activity: 81.3%.
The remaining activity was 98.9% (CSNK1A1 (Homo sapiens, UniProt P48729)).
For MAPK12 (Homo sapiens, UniProt P53778): remaining activity read 61.9%.
For NEK4 (Homo sapiens, UniProt P51957): remaining activity read 76%.
The remaining activity was 104% (PLK2 (Homo sapiens, UniProt Q9NYY3)).
The remaining activity was 103% (MAP3K10 (Homo sapiens, UniProt Q02779)).
The remaining activity was 88.9% (AKT3 (Homo sapiens, UniProt Q9Y243)).
The remaining activity was 90.1% (PRKCD (Homo sapiens, UniProt Q05655)).

Block 2 — effect on: enzyme activity; mode: inhibitor; concentration: 10 µM
Target: Calcium/calmodulin-dependent protein kinase type II subunit alpha (CAMK2A, Homo sapiens, UniProt Q9UQM7)
UniProt Q9UQM7, sequence (whole entry, looked up): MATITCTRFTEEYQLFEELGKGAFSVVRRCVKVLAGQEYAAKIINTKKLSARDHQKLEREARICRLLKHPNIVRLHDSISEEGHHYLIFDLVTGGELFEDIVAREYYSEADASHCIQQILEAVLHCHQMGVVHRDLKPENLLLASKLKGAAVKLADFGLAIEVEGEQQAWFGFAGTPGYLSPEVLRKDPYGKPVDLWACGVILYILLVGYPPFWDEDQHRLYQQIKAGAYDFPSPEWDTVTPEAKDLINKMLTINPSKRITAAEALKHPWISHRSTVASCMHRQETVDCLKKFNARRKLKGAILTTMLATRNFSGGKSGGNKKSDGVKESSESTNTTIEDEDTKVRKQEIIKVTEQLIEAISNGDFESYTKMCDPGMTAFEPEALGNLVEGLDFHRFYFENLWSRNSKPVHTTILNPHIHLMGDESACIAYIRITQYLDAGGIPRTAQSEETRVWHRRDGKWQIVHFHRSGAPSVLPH
For CN(C)CCc1c[nH]c2ccc(CS(=O)(=O)N3CCCC3)cc12, the inhibition was -5%.
COc1ccc2[nH]c([S@@+]([O-])Cc3ncc(C)c(OC)c3C)nc2c1 has an inhibition of -3%.
With N#Cc1ccc(Oc2ccc3c(c2)COB3O)cc1 the inhibition was -11%.
For COc1cccc(C(=O)O)c1, the inhibition was 8%.
OC[C@H]1O[C@@H](Oc2ccc(O)cc2)[C@H](O)[C@@H](O)[C@@H]1O gave an inhibition of 28%.
For CCC(=O)NCC[C@@H]1CCc2ccc3c(c21)CCO3, the inhibition was 3%.
The inhibition of CCOc1cc(CC(=O)N[C@@H](CC(C)C)c2ccccc2N2CCCCC2)ccc1C(=O)O is reported as -1%.
The inhibition of Cc1cc(O)cc(O)c1C(=O)O is reported as -10%.
For COc1ccc(C(=O)NCc2ccc(OCCN(C)C)cc2)cc1OC, the inhibition was -7%.

Block 3 — concentration: 10 µM
Compound: Cc1sc(C(=O)NC2COC2)cc1-n1cc(NC(=O)Nc2c(F)cccc2Cl)cn1
For IKBKB (Homo sapiens, UniProt O14920); enzyme activity; relative to: untreated control: remaining activity read 82.1%.
For Cyclin-dependent kinase 4, with cyclin D3 (CDK4, Homo sapiens, UniProt P11802); enzyme activity; relative to: untreated control: remaining activity read 94.5%.
For MAP3K8 (Homo sapiens, UniProt P41279); enzyme activity; relative to: untreated control: remaining activity read 105%.
The remaining activity was 120% (PRKG1 (Homo sapiens, UniProt Q13976); kinase activity, kinase panel profiling).
The remaining activity was 79.1% (PRKX (Homo sapiens, UniProt P51817); enzyme activity; relative to: untreated control).
It gave 99.9% for remaining activity (ALK (Homo sapiens, UniProt Q9UM73); enzyme activity; relative to: untreated control).
VRK2 (Homo sapiens, UniProt Q86Y07); enzyme activity; relative to: untreated control — remaining activity: 100%.
It gave 70.8% for remaining activity (INSRR (Homo sapiens, UniProt P14616); enzyme activity; relative to: untreated control).
STK11 (Homo sapiens, UniProt Q15831); enzyme activity; relative to: untreated control — remaining activity: 97%.
The remaining activity was 96.5% (PRKG2 (Homo sapiens, UniProt Q13237); enzyme activity; relative to: untreated control).
NTRK1 (Homo sapiens, UniProt P04629); enzyme activity; relative to: untreated control — remaining activity: 76.8%.
It gave 79% for remaining activity (BMPR2 (Homo sapiens, UniProt Q13873); enzyme activity; relative to: untreated control).

Block 4 — effect on: cell-free assay; technique: competition with immobilised ligand; concentration: 1 µM
Structure (SMILES): CCCCN(CCCC)C(=O)CN1C[C@H](c2cc(OC)c3c(c2)OCO3)[C@@H](C(=O)O)[C@@H]1CC(C)(C)CCC
The remaining binding was 49.9% (PIK3C3 (Homo sapiens, UniProt Q8NEB9)).
KIT (Homo sapiens, UniProt P10721, D816H) — remaining binding: 67.3%.
TESK1 (Homo sapiens, UniProt Q15569) — remaining binding: 100%.
The remaining binding was 100% (CAMK4 (Homo sapiens, UniProt Q16566)).
It gave 100% for remaining binding (eIF-2-alpha kinase GCN2, C-terminal kinase domain (EIF2AK4, Homo sapiens, UniProt Q9P2K8, S808G)).
For CSNK1G2 (Homo sapiens, UniProt P78368): remaining binding read 100%.
The remaining binding was 100% (MAP2K6 (Homo sapiens, UniProt P52564)).
The remaining binding was 100% (EPHA7 (Homo sapiens, UniProt Q15375)).
It gave 100% for remaining binding (EPHA4 (Homo sapiens, UniProt P54764)).
ROCK2 (Homo sapiens, UniProt O75116) — remaining binding: 85.2%.
For MYLK4 (Homo sapiens, UniProt Q86YV6): remaining binding read 99.1%.
The remaining binding was 86.4% (CDK11B (Homo sapiens, UniProt P21127)).
For Tyrosine-protein kinase JAK1, JH2 (JAK1, Homo sapiens, UniProt P23458): remaining binding read 84.7%.
RIPK1 (Homo sapiens, UniProt Q13546) — remaining binding: 100%.
WNK3 (Homo sapiens, UniProt Q9BYP7) — remaining binding: 100%.
For LRRK2 (Homo sapiens, UniProt Q5S007, G2019S): remaining binding read 100%.
For CAMK2G (Homo sapiens, UniProt Q13555): remaining binding read 100%.
For ERBB3 (Homo sapiens, UniProt P21860): remaining binding read 100%.
For PAK6 (Homo sapiens, UniProt Q9NQU5): remaining binding read 100%.
NLK (Homo sapiens, UniProt Q9UBE8) — remaining binding: 100%.
Insulin receptor (INSR, Homo sapiens, UniProt P06213) — remaining binding: 75.8%.
The remaining binding was 100% (CLK3 (Homo sapiens, UniProt P49761)).
PIK3CB (Homo sapiens, UniProt P42338) — remaining binding: 56.9%.
